Measured values from different studies.
A part holds a random share of what one study measured. Values joined by “and” are separate records of one study, mostly repeats; a detail may differ.

Block 1 — mode: binding; technique: isothermal titration calorimetry; temperature: 15 °C; endpoint: TΔS
Target: Bromodomain-containing protein 4, BD1 (BRD4, Homo sapiens, UniProt O60885)
Structure (SMILES) = CC[C@@H]1C(=O)N(C)c2cnc(Nc3ccc(C(=O)N[C@H]4CC[C@H](N5CCN(CC6CC6)CC5)CC4)cc3OC)nc2N1C(C)C; value = 0.85 kcal/mol
Structure (SMILES) = Cc1cnc(Nc2ccc(N3CCN(C)CC3)cc2)nc1Nc1cccc(S(=O)(=O)NC(C)(C)C)c1; value = 1.95 kcal/mol
Structure (SMILES) = CC(C)CCN1c2nc(Nc3cc(F)c(O)c(F)c3)ncc2N(C)C(=O)C1C (centres unmarked); value = -3.8 kcal/mol
Structure (SMILES) = Cc1cnc(Nc2ccc(OCCN3CCCC3)cc2)nc1Nc1cccc(S(=O)(=O)NC(C)(C)C)c1; value = 3.65 kcal/mol

Block 2 — effect on: enzyme activity; mode: inhibitor; concentration: 0.5 µM; baseline: control; endpoint: remaining activity
Target: PAS domain-containing serine/threonine-protein kinase (PASK, Homo sapiens, UniProt Q96RG2)
UniProt Q96RG2, sequence (whole entry, looked up): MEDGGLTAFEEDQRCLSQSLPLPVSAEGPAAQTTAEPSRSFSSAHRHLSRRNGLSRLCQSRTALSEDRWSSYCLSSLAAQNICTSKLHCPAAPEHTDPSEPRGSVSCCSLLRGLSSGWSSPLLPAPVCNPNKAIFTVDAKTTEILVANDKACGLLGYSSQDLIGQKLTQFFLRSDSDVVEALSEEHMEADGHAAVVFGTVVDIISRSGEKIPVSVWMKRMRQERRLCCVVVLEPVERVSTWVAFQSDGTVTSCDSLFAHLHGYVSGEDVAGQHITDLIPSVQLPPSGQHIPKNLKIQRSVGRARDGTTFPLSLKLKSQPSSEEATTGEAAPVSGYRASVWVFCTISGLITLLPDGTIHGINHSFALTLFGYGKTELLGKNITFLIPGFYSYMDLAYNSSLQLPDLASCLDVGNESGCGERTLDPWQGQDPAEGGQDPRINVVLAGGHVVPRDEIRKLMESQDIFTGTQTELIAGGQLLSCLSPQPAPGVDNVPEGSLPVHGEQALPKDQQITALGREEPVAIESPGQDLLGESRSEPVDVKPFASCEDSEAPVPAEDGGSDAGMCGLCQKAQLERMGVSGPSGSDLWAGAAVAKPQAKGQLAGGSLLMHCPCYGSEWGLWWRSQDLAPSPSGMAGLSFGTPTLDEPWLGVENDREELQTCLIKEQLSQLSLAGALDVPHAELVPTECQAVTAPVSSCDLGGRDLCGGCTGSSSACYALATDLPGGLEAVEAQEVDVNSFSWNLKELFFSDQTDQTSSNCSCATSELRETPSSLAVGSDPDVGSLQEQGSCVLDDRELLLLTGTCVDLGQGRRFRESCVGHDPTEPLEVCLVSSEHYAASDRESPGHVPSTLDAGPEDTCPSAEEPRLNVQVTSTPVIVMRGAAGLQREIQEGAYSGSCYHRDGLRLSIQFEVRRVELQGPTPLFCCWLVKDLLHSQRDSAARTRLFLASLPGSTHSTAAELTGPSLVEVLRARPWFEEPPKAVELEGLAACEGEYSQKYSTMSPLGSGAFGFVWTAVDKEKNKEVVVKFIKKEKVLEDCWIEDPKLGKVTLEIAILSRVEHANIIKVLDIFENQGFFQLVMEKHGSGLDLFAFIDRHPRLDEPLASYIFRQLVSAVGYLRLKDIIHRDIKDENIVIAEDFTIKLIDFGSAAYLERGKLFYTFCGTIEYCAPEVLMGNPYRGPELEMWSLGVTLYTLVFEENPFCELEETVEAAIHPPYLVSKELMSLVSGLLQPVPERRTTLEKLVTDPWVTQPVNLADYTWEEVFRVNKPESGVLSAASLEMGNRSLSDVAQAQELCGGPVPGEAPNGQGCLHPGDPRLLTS
SMILES = O=C1NC(=O)/C(=C/c2ccc3c(c2)OC(F)(F)O3)S1; value = 78.2%
SMILES = O=c1c(-c2ccc(F)cc2)c(-c2ccncc2)[nH]n1-c1ccc(Cl)cc1; value = 93.6%
SMILES = COc1cc2c(Nc3ccc(Br)cc3F)ncnc2cc1OCC1CCN(C)CC1; value = 102%
SMILES = CCN(CC)CCCCN1c2ccccc2Oc2ccc(Cl)cc21; value = 76.6%
SMILES = O=C(O)/C=C/c1cc(Br)c(Br)c(Br)c1Br; value = 24.8%
SMILES = CC(C)N(CCC(=O)c1ccc2ccccc2c1)Cc1ccccc1; value = 97.3%
SMILES = COc1cc2c(N3CCN(C(=O)Nc4ccc(OC(C)C)cc4)CC3)ncnc2cc1OCCCN1CCCCC1; value = 105%
SMILES = FC(F)(F)c1ccc(/C=C/c2nc(COc3ccc(CCCCn4ccnn4)cc3)co2)cc1; value = 104%
SMILES = N#C/C(=C(/N)SC1C=CC=CC1)c1cccc(C(O)c2ccncc2)c1 (centres unmarked); value = 99.5%
SMILES = CC(C)(C)c1nc2c3cc[nH]c(=O)c3c3cc(F)ccc3c2[nH]1; value = 83.2%
SMILES = C[C@@H](N)[C@H]1CC[C@H](C(=O)Nc2ccncc2)CC1; value = 92.5%
SMILES = CCCCc1c(-c2ccc(O)cc2)[nH]c2nccnc12; value = 99.5%
SMILES = Nc1nc(Nc2ccc(S(N)(=O)=O)cc2)nn1C(=S)Nc1c(F)cccc1F; value = 91.8%
SMILES = O=C1c2ccccc2-c2nc3nnnn3nc21; value = 73.4%
SMILES = CC(C)n1cnc2c(Nc3cccc(Cl)c3)nc(NCCO)nc21; value = 92.7%
SMILES = c1cc(-c2cnn3cc(-c4ccc(OCCN5CCCCC5)cc4)cnc23)ccn1; value = 86.3%
SMILES = NC(=O)c1cccc(-c2cc(Nc3ccc(OC(F)(F)F)cc3)ncn2)c1; value = 100%
SMILES = CNc1cc2c(Nc3cccc(Br)c3)ncnc2cn1; value = 86.9%
SMILES = Clc1ccc(Nc2nnc(Cc3ccncc3)c3ccccc23)cc1; value = 101%
SMILES = O=C(c1ccccc1)c1ccc(N2CCOCC2)cc1O; value = 94.3%
SMILES = NC(=O)c1ccc(-c2nc(-c3ccc4c(c3)OCCO4)c(-c3ccccn3)[nH]2)cc1; value = 92.6%

Block 3 — effect on: enzyme activity; mode: inhibitor; concentration: 77 µM; baseline: untreated; endpoint: remaining activity
Target: DNA polymerase theta, ATPase domain (POLQ, Homo sapiens, UniProt O75417)
UniProt O75417, sequence (whole entry, unmodified, looked up): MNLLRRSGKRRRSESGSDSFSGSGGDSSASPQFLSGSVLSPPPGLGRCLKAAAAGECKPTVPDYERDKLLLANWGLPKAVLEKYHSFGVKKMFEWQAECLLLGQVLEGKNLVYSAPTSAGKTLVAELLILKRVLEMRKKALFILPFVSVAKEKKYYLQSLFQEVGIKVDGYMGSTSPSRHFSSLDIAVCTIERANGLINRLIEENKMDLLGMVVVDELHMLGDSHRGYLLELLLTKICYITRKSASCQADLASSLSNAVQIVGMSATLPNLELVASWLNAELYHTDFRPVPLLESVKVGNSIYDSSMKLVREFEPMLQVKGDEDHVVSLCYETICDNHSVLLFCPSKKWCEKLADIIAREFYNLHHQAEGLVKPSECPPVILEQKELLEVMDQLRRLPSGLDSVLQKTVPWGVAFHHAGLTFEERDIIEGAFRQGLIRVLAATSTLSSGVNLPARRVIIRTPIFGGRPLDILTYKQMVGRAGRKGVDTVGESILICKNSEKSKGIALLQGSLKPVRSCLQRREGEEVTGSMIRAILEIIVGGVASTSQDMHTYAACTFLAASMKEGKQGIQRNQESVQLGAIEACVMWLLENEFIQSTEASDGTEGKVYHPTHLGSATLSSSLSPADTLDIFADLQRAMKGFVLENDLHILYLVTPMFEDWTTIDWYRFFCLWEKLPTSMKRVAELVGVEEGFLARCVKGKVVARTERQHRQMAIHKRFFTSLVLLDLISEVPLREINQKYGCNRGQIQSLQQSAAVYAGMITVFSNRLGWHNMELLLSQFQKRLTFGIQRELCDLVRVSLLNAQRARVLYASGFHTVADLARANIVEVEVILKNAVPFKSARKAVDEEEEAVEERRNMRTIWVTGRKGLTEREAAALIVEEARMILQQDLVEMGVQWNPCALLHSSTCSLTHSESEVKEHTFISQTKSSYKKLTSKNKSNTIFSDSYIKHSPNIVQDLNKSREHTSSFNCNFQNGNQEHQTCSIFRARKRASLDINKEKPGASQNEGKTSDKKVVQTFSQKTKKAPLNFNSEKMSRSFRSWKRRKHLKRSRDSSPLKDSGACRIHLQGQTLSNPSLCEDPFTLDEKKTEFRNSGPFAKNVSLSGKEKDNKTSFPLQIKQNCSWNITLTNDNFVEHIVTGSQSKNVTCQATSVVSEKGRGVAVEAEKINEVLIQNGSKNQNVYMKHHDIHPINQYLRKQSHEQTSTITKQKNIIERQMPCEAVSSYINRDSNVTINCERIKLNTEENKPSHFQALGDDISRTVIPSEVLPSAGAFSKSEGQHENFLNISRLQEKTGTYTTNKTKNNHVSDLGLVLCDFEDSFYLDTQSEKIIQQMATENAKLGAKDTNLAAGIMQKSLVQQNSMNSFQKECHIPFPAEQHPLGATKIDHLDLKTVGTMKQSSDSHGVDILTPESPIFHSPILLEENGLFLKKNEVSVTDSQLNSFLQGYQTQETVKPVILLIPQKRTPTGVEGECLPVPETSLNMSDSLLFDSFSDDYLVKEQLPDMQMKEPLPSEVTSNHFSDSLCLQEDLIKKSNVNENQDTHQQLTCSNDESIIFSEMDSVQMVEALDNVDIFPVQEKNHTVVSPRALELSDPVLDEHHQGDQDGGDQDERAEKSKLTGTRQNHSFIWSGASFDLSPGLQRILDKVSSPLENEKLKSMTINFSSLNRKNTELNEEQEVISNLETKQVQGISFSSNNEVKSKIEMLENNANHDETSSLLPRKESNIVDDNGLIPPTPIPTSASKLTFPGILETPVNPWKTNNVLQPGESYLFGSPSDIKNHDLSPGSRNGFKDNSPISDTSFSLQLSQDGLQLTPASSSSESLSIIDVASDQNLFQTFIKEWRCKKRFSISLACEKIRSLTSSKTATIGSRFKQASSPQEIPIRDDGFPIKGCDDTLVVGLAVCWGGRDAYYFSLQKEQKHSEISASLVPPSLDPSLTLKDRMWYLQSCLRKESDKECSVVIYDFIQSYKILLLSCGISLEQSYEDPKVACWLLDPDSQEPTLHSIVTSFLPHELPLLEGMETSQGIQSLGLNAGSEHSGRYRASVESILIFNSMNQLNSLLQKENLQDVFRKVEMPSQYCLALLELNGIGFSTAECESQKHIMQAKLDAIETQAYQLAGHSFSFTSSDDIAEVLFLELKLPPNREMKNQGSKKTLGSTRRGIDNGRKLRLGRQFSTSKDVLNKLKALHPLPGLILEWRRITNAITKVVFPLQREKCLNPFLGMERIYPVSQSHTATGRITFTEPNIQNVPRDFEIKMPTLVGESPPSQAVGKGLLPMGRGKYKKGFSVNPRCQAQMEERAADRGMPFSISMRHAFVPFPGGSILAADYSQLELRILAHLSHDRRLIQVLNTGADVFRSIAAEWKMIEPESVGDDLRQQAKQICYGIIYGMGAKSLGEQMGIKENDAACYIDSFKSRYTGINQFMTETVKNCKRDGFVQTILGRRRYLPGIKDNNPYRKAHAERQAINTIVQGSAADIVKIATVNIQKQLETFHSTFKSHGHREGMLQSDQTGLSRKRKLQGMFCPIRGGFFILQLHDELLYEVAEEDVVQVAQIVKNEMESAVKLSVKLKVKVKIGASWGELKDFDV
SMILES = CCn1c(=O)c2c(nc(/C=C/c3ccc(OC)c(OC)c3)n2C)n(CC)c1=O; value = 97%
SMILES = CN(C)[C@@H]1C(O)=C(C(N)=O)C(=O)[C@@]2(O)C(O)=C3C(=O)c4c(O)cccc4[C@@](C)(O)[C@H]3[C@H](O)[C@@H]12; value = 100%
SMILES = O=C1C(SCCO)=C(SCCO)C(=O)c2ccccc21; value = 79%
SMILES = COc1cc(C(=O)NCc2ccc(OCCN(C)C)cc2)cc(OC)c1OC; value = 96.5%
SMILES = O=C(N[C@H](CO)[C@H](O)c1ccc([N+](=O)[O-])cc1)C(Cl)Cl; value = 102% and 90.8%
SMILES = O=c1oc(Cl)c(Cl)c2ccccc12; value = 99.3%
SMILES = CN(N=O)C(=O)N[C@@H](C=O)[C@@H](O)[C@H](O)[C@H](O)CO; value = 105%
SMILES = COc1cc([C@@H]2c3cc4c(cc3[C@@H](O[C@@H]3O[C@@H]5CO[C@@H](c6cccs6)O[C@H]5[C@H](O)[C@H]3O)[C@H]3COC(=O)[C@H]23)OCO4)cc(OC)c1O; value = 100%
SMILES = CC(=O)Oc1cccc2c1C(=O)c1c(OC(C)=O)cc(C(=O)O)cc1C2=O; value = 60.6%

Block 4 — cell line: normal-adjacent organoid sample F; technique: CellTiter-Glo; concentration: 1 µM; notes: replicate mean; baseline: DMSO; endpoint: viability
Structure (SMILES) = CN(C(=O)c1ccccc1)c1cc(N(C)c2ccc3c(c2)CCc2ccc(C(=O)NCCN4CCOCC4)cc2C3=O)ccc1F; value = 127%
Structure (SMILES) = O=C(NCc1ncc(C(F)(F)F)cc1Cl)c1ccc2c(c1)C1(CCS(=O)(=O)CC1)[C@@H](C1CC1)N2S(=O)(=O)c1ccc(F)cc1; value = 99.8%
Structure (SMILES) = Cc1ccc2[nH]c(CNCCCc3ccncc3)cc(=O)c2c1; value = 132%
Structure (SMILES) = C[C@H](NC(=O)c1cnc2n1[C@](C)(Cc1ccc(C#N)cc1)C(=O)N2c1cc(Cl)c(F)c(Cl)c1)C(=O)NC1(c2ccccn2)CC1; value = 109%
Structure (SMILES) = CN1CCN(C(=O)C(C)(C)c2ccc(C(=O)Nc3cn4cc(-c5ccncc5)ccc4n3)cc2)CC1; value = 73.1%
Structure (SMILES) = O=C(Nc1cccnn1)N1CCC(=Cc2cccc(Oc3ccc(C(F)(F)F)cn3)c2)CC1; value = 102%
Structure (SMILES) = CCCCN(CCCC)C(=O)CN1C[C@@H](c2cc(OC)c3c(c2)OCO3)[C@H](C(=O)O)[C@H]1CC(C)(C)CCC; value = 103%
Structure (SMILES) = CC(=O)Nc1c(C(C)=O)c(=O)n(C)c2nc(-c3ccc(Cl)cc3Cl)c(-c3ccc(Cl)cc3)cc12; value = 111%
Structure (SMILES) = CCc1ccccc1C(=O)Nc1n[nH]c2c(C)c(F)c(C3C(C#N)=C(C)N(C)C(C)=C3C#N)cc12; value = 102%
Structure (SMILES) = O=C(NC[C@@H]1[C@H]2CN(C(=O)OCc3cc(C(F)(F)F)cc(C(F)(F)F)c3)C[C@@H]12)c1ccc2[nH]nnc2c1; value = 97.1%
Structure (SMILES) = Cn1cc(Cl)c2c(Oc3c(F)cc(Nc4cc(Cl)nc(N)n4)cc3F)ccnc21; value = 110%
Structure (SMILES) = CN(C)CC#Cc1ccc(OCCCc2sc(N3CCc4cccc(C(=O)Nc5nc6ccccc6s5)c4C3)nc2C(=O)O)c(F)c1; value = 19.6%
Structure (SMILES) = CC(=O)C1=C(C)N(c2cccc(C(F)(F)F)c2)C(=O)N[C@H]1c1ccc(C#N)nc1; value = 103%
Structure (SMILES) = O=C(N1CCS(=O)(=O)CC1)N1C[C@H](c2ccc(OC(F)(F)F)cc2)C[C@H](c2nc(C3CC3)no2)C1; value = 106%
Structure (SMILES) = NS(=O)(=O)c1cc(NC(=O)C2(c3ccccc3Cl)CC2)ccc1Oc1cccc(Cl)c1; value = 101%
Structure (SMILES) = Cc1c(N2CCNCC2)nc2ccc(Br)cc2c1C(=O)NC[C@H](CCC(=O)O)c1ccccc1Cl; value = 88.8%
Structure (SMILES) = C[C@@H]1CN(c2cc(-c3nn(C)c4ccc(OC5(C)CC5)cc34)ncn2)C[C@H](C)O1; value = 99.9%
Structure (SMILES) = Cc1ccc2nc(CNCCCOc3ccccc3)cc(O)c2c1; value = 121%
Structure (SMILES) = CC(=O)N1CCC(c2ccc(C(=O)NC(=N)N)cc2C(F)(F)F)CC1; value = 110%
Structure (SMILES) = Cc1nc(N2CC[C@@H](O)C2)ncc1-c1cc(C(F)(F)F)cc2[nH]ncc12; value = 100%
Structure (SMILES) = Cc1c(C(=O)O)cc(-c2ccc(C3CCNCC3)cc2)c2ccc(-c3ccc(C(F)(F)F)cc3)cc12; value = 115%
Structure (SMILES) = CO[C@@H](C)c1c(Nc2ccc([C@H](N(C)C(=O)C3CCS(=O)(=O)CC3)C(F)(F)F)cc2)cnc2cc(Cl)nn12; value = 81.7%
Structure (SMILES) = O=C1NC(c2ccccn2)Sc2ccccc21 (centres unmarked); value = 105%
Structure (SMILES) = Cc1cc(NC(=O)c2cccc(S(F)(F)(F)(F)F)c2)cc(-n2ccn3nc(-c4cccnc4)cc23)c1; value = 97.3%
Structure (SMILES) = c1ccc2oc(-c3csc(C4CCN(Cc5nc6ncccc6[nH]5)CC4)n3)cc2c1; value = 41%

Some of these lines once more (block 1):
Structure (SMILES) = CC[C@@H]1C(=O)N(C)c2cnc(Nc3ccc(C(=O)N[C@H]4CC[C@H](N5CCN(CC6CC6)CC5)CC4)cc3OC)nc2N1C(C)C; value = 0.85 kcal/mol
Structure (SMILES) = Cc1cnc(Nc2ccc(N3CCN(C)CC3)cc2)nc1Nc1cccc(S(=O)(=O)NC(C)(C)C)c1; value = 1.95 kcal/mol
Structure (SMILES) = CC(C)CCN1c2nc(Nc3cc(F)c(O)c(F)c3)ncc2N(C)C(=O)C1C (centres unmarked); value = -3.8 kcal/mol
Structure (SMILES) = Cc1cnc(Nc2ccc(OCCN3CCCC3)cc2)nc1Nc1cccc(S(=O)(=O)NC(C)(C)C)c1; value = 3.65 kcal/mol
